# Results pooled from the literature.
# Parts stem from different laboratories: compare values within a part only.
# UniProt P51451, sequence (whole entry, looked up): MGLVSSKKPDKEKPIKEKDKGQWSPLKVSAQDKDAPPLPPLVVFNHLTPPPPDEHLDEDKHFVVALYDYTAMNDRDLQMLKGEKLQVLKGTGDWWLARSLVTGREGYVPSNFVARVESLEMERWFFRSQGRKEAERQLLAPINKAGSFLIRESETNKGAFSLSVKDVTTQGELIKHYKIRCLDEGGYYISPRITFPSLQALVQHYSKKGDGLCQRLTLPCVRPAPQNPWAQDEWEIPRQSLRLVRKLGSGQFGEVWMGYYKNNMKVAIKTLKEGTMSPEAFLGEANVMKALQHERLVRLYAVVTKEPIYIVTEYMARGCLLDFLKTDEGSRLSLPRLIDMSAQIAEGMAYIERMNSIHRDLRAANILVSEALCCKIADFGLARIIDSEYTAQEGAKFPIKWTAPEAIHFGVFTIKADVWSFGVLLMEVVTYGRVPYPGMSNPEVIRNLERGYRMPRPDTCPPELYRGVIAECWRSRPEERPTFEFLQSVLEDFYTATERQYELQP
# UniProt P54762, sequence (whole entry, looked up): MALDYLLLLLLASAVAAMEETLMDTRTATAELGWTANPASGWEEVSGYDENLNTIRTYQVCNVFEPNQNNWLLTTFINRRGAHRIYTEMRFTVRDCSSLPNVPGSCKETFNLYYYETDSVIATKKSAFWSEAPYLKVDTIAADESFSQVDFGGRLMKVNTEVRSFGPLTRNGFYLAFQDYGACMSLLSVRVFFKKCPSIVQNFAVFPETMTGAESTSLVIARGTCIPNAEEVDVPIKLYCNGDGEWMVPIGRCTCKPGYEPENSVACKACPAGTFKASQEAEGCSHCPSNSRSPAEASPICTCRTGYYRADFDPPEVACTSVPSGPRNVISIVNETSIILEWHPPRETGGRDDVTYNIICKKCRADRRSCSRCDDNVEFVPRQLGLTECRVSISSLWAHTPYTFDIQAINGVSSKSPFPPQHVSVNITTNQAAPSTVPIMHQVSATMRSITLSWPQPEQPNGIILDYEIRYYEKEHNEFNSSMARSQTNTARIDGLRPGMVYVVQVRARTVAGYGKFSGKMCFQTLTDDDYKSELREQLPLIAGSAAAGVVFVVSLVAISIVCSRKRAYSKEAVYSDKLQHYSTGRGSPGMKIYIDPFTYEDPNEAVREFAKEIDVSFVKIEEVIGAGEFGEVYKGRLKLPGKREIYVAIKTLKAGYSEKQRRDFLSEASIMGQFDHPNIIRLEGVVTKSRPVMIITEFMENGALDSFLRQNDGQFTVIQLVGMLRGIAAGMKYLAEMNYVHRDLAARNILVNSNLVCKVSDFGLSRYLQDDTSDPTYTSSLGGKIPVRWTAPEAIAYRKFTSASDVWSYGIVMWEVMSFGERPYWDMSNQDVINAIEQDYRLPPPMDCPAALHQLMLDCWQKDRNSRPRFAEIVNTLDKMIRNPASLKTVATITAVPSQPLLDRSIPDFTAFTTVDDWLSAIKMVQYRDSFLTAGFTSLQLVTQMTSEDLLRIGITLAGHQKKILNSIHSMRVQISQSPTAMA
# UniProt Q9UEE5, sequence (whole entry, looked up): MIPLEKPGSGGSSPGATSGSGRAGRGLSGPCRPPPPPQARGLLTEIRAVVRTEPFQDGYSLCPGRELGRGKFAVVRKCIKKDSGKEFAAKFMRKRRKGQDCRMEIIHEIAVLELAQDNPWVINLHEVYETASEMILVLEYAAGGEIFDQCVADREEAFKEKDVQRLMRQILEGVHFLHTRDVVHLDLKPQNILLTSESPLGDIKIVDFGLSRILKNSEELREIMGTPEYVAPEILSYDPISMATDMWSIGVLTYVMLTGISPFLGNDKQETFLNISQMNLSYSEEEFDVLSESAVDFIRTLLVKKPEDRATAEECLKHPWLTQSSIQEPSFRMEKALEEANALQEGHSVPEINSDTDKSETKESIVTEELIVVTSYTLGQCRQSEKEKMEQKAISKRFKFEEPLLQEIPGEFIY
# UniProt O15530, sequence (whole entry, looked up): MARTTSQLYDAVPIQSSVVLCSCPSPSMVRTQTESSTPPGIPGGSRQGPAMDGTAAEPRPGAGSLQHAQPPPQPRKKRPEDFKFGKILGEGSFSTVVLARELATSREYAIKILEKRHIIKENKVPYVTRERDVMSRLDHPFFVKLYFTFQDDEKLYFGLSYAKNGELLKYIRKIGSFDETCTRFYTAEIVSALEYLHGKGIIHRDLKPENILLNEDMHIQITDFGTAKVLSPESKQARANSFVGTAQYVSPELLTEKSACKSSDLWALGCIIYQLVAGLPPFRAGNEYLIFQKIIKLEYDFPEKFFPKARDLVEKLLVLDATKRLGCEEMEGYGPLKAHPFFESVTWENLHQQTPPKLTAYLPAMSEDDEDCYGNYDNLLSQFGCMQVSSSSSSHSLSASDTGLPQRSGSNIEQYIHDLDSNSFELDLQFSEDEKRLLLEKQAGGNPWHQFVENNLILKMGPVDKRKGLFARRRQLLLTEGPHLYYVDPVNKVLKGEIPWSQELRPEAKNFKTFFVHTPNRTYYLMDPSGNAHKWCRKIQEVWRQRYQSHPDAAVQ
# UniProt O43781, sequence (whole entry, looked up): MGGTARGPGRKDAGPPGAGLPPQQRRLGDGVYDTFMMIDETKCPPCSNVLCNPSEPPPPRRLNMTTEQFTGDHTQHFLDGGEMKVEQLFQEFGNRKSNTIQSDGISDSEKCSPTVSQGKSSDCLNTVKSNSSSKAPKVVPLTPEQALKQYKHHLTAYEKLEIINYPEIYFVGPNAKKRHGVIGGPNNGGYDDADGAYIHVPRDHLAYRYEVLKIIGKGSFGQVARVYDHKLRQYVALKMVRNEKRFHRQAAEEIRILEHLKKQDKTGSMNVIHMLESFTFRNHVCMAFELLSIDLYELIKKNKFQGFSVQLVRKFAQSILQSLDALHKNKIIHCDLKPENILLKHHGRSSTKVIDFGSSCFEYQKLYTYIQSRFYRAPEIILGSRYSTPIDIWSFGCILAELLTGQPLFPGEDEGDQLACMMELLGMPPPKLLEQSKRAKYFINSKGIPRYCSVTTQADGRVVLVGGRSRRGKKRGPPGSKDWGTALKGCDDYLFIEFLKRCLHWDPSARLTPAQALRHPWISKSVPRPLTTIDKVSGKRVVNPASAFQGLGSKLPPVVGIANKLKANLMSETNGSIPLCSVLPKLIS
# UniProt P06493, sequence (whole entry, looked up): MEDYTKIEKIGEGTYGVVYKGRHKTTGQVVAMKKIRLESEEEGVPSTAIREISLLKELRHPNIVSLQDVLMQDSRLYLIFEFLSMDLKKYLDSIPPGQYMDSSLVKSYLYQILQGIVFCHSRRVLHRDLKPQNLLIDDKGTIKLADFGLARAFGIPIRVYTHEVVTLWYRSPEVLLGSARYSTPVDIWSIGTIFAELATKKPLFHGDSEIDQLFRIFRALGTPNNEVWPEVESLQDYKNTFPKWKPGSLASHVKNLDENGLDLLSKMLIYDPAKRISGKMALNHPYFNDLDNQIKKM
# UniProt Q16644, sequence (whole entry, looked up): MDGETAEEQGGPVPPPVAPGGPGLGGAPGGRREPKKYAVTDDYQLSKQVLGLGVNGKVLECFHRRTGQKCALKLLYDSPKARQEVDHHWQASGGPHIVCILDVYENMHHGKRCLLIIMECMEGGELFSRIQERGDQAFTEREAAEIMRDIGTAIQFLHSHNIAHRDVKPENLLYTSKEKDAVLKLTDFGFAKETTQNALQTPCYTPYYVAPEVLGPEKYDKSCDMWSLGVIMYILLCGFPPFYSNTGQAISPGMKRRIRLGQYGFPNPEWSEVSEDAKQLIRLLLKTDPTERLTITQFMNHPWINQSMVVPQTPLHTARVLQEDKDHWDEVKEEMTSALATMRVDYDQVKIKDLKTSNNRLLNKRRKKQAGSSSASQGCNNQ

# Study 1 — technique: protein-binding microarray; form: hairpin DNA; sample: in vitro; concentration: not given; relative to: not given; reading: higher = stronger binding; shared flanks, not repeated: GAGGCCG … CGGCCTCACACTC
# Target: Cyclic AMP-responsive element-binding protein 1, full length (CREB1, Homo sapiens, UniProt P16220, residues 1-327)
# UniProt P16220, sequence (whole entry, looked up): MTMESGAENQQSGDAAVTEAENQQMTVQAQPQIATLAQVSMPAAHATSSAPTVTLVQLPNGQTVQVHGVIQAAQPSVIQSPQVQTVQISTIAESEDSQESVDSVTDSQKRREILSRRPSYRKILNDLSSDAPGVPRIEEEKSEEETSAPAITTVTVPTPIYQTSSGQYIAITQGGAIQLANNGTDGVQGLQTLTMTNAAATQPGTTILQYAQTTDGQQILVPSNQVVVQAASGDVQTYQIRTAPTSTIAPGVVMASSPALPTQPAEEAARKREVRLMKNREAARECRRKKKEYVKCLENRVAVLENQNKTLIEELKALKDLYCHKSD
# Notes: whole hairpin DNA, median over replicate spots
Sequence,median fluorescence [a.u.]
GCTGACCGCAGCCTCCTGGCTGCGGTCAGC (5mC at 14),2630
GATGACGTCAGCCTCCTGGCTGACGTCATC (5mC at 13),7620
CCTGACGTCAGCCTCCTGGCTGACGTCAGG,9290
ACGACGCGGTGCCTCCTGGCACCGCGTCGT (5mC at 9 14 29 35),4950
AAGACGTCGTGCCTCCTGGCACGACGTCTT (5mC at 15 29 35),3280
GCTCGCGTCAGCCTCCTGGCTGACGCGAGC,3590
GAAGACGTCAGCCTCCTGGCTGACGTCTTC,4530
ACCACGTCGTGCCTCCTGGCACGACGTGGT (5mC at 9 15 29),4230

# Study 2 — technique: protein-binding microarray; form: double-stranded DNA, one strand shown; sample: in vitro; concentration: 0.8 µM; notes: whole 60-bp probe, no competitor; reading: higher = stronger binding; shared flanks, not repeated: … GTCTTGATTCGCTTGACGCTGCTG
# Target: Centromere-binding protein 1, full length, N-terminal tag (CBF1, Saccharomyces cerevisiae, UniProt P17106, residues 1-351)
# UniProt P17106, sequence (whole entry, looked up): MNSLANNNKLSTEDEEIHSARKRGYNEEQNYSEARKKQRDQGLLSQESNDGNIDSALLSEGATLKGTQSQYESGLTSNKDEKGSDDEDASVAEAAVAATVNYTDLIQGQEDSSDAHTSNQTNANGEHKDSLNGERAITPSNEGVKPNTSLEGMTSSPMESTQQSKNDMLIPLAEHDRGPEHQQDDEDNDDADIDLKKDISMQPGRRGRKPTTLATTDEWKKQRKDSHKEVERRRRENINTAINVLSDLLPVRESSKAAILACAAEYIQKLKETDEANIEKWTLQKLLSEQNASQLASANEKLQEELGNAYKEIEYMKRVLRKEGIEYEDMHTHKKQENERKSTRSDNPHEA
Sequence,fluorescence intensity
GAATTTCGTTGAAGTGATGTTACCTCATACAATTAG,508 a.u.
CTAATACTGTTGTATCACGACTAAGTAGTTGTCTTC,559 a.u.
GAATATTGGTTGGCTGATGTTAGTAATTACTACTAG,513 a.u.
CTAGATCCCTGAAGTCATGCCCCTCACCTTCATTTC,624 a.u.
GAAAATATAATAATACAGGTGATAGAATGCGAATAG,690 a.u.
CTAGTAAGCGGTGGTCATCACAACCATCAGCGGTTC,484 a.u.
CTAGCTTCTCTAAACCACCTGATGCTTCTATCTTTC,887 a.u.
CTATCGCACATACACCACCTTCTTTTTTTTTTTTTC,538 a.u.

# Study 3 — read-out: cell-free assay; concentration: 10 µM
# Target: 5-hydroxytryptamine receptor 3A (HTR3A, Homo sapiens, UniProt P46098)
# UniProt P46098, sequence (whole entry, looked up): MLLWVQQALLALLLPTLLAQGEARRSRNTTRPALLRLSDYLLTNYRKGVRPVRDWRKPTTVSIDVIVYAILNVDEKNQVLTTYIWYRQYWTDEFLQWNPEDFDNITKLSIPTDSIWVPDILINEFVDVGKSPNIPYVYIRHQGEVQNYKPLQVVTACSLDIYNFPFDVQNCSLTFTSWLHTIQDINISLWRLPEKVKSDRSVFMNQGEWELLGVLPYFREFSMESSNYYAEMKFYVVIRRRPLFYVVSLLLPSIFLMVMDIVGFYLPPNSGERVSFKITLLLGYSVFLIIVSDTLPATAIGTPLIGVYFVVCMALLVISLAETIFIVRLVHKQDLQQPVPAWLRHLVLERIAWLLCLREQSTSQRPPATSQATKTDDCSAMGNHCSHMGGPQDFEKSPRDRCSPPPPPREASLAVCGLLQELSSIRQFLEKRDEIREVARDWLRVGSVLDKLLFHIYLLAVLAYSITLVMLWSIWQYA
SMILES,inhibition
CC(C)CC(=O)N1CCc2nc(-c3ccc(Br)cc3)nc(N(C)Cc3ccccc3)c2C1,-4.38%
COc1cc(C(=O)O)ncc1C#Cc1ccccc1NS(=O)(=O)c1cccc2c(N(C)C)ccnc12,1.13%
CN(C)C(=O)c1sc2nc(N3CCC(S(C)(=O)=O)CC3)cc(C(F)(F)F)c2c1N,10.3%
CN1CCN(C(=O)C(C)(C)c2ccc(C(=O)Nc3cn4cc(-c5cc(C(C)(C)C)cc(C(C)(C)C)c5)ccc4n3)cc2)CC1,6.47%
C[C@H](c1cccc(C#N)c1)n1cc(Cl)cc(C(N)=O)c1=N,9.56%

# Study 4 — read-out: enzyme activity; mode: inhibitor; concentration: 0.5 µM; relative to: control
# Structure (SMILES): CCN(CC)C(=O)c1ccc(Nc2nc(OCC3CCCCC3)c3[nH]cnc3n2)cc1
target,remaining activity [%]
"WNK3 (Homo sapiens, UniProt Q9BYP7)",80.6
"ABL1 (Homo sapiens, UniProt P00519)",67.1
"RPS6KA5 (Homo sapiens, UniProt O75582)",89.8
"DYRK3 (Homo sapiens, UniProt O43781)",97.6
"MAPKAPK3 (Homo sapiens, UniProt Q16644)",103
"AXL (Homo sapiens, UniProt P30530)",80.8
"EPHB1 (Homo sapiens, UniProt P54762)",75.4
"BLK (Homo sapiens, UniProt P51451)",60.9
"Cyclin-dependent kinase 1, with cyclin B (CDK1, Homo sapiens, UniProt P06493)",62.4
"STK17A (Homo sapiens, UniProt Q9UEE5)",59.8
"PDPK1 (Homo sapiens, UniProt O15530)",69.1
"MAP4K4 (Homo sapiens, UniProt O95819)",85.9
